Experimental data from different studies.
Numbered parts are unrelated; each lists some results of a single study.

Set 1
Target: Interferon regulatory factor 7, full length, phosphomimetic (IRF7, Homo sapiens, UniProt Q92985, residues 1-503, S471D/S472D/S475D/S476D/S477D/S483D/S484D/S487D)
Sequence of UniProt Q92985 (whole entry, unmodified, looked up): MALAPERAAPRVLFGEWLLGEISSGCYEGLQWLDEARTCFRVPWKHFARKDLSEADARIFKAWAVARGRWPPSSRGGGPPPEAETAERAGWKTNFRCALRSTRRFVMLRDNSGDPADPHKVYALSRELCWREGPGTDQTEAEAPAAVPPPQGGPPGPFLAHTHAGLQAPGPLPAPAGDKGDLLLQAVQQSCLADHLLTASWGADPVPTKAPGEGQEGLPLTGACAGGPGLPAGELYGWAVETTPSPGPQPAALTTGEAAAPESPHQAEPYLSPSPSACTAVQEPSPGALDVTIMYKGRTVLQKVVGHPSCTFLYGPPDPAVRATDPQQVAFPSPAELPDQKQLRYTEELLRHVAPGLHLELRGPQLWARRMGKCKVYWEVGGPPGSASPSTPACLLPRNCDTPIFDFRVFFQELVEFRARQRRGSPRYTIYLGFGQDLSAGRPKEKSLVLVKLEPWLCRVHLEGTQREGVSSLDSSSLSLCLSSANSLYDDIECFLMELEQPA
Method: protein-binding microarray
Molecule type: double-stranded DNA, one strand shown
Sample: in vitro
Tested at: 2200 nM top
Notes: 60-bp whole probe
Together with: salmon DNA 0.4 mg/ml
Baseline: random background probes
Direction: higher = stronger binding
Measurement: fitted relative affinity
Oligonucleotide = GCCTAGCACTTAGGTCTCGCTATCGGTTAGTGCTAGGTCTTGATTCGCTTGACGCTGCTG; value = 0.924 z-score
Oligonucleotide = GCCTAGCACGACGTTCTCAGTTTCGAGACGTGCTAGGTCTTGATTCGCTTGACGCTGCTG; value = 3.76 z-score
Oligonucleotide = GCCTAGCACGCAGACTACCTATGAGTATCGTGCTAGGTCTTGATTCGCTTGACGCTGCTG; value = 0.392 z-score
Oligonucleotide = GCCTAGCACTCAGTTTCCTCTTTCACACTGTGCTAGGTCTTGATTCGCTTGACGCTGCTG; value = 5.92 z-score

Set 2
Target: Histone acetyltransferase KAT6A, winged helix 2, GST fusion (KAT6A, Homo sapiens, UniProt Q92794, residues 85-181)
Method: protein binding microarray
Molecule type: double-stranded DNA, one strand shown
Sample: in vitro
Tested at: not given
Notes: 8-mer, flanks averaged, mean of 2 arrays, mostly near background
Baseline: not given
Direction: higher = stronger binding
Measurement: E-score
Target sequence (chain): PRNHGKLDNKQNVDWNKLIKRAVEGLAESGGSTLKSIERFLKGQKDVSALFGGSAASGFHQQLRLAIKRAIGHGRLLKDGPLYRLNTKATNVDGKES
Oligonucleotide = TATTATCA; value = -0.0209
Oligonucleotide = CCCGATGA; value = 0.207
Oligonucleotide = AGTAACAG; value = -0.0597

Set 3
Target: Sal-like protein 4, full length isoform A (SALL4, Homo sapiens, UniProt Q9UJQ4, residues 1-1053)
Sequence of UniProt Q9UJQ4 (whole entry, looked up): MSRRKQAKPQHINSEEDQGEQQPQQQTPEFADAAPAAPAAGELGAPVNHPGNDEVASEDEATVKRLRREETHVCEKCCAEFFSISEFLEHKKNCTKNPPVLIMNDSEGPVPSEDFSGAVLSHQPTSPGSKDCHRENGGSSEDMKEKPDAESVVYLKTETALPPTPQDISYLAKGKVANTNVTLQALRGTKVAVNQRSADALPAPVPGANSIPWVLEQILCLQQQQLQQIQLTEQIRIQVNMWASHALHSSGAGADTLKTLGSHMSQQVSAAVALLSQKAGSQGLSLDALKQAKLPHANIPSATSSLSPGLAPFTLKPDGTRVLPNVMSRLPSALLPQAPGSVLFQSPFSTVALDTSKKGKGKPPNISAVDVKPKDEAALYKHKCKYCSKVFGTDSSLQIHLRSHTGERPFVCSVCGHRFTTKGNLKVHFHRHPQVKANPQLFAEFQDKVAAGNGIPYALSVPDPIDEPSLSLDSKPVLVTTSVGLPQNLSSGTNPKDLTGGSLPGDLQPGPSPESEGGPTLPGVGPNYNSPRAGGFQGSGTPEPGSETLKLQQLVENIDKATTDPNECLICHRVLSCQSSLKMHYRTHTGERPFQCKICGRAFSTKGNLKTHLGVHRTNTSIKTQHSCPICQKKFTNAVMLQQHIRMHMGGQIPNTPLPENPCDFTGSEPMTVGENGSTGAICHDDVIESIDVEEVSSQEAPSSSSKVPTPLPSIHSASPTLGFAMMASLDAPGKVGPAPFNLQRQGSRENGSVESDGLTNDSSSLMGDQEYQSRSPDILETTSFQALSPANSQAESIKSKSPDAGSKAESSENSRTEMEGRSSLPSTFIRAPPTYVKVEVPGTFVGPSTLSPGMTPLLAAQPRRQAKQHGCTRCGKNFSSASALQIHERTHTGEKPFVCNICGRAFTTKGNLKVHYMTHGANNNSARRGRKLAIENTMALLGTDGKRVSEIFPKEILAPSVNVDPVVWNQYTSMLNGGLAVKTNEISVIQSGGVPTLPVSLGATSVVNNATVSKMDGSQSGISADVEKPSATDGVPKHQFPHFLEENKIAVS
Method: universal PBM
Molecule type: double-stranded DNA, one strand shown
Sample: in vitro
Tested at: 600 nM
Notes: 8-mer, flanks averaged, mean of replicates
Direction: higher = stronger binding
Measurement: E-score
Oligonucleotide = AGTCAGGG; value = -0.169
Oligonucleotide = AAGTACCT; value = -0.00558
Oligonucleotide = TCCTCCAA; value = -0.0216
Oligonucleotide = ATCCGTAA; value = -0.0381

Single results of other studies
Substance = PhoQ, residues 284 288 289 292 302 303 NLMGRA; target = PhoP, residues 12 14 15 18 19 IQSYL (Escherichia coli, UniProt P23836); test = Sort-seq, item: YFP reporter; test system = E. coli; setting = PhoQ-PhoP variant library, together with: 10 µM Mg2+; how to read = baseline: high Mg2+ state, higher = stronger signaling; measurement = fold induction; value = 15.8

A few entries again (set 1):
Oligonucleotide = GCCTAGCACGACGTTCTCAGTTTCGAGACGTGCTAGGTCTTGATTCGCTTGACGCTGCTG; value = 3.76 z-score
Oligonucleotide = GCCTAGCACGCAGACTACCTATGAGTATCGTGCTAGGTCTTGATTCGCTTGACGCTGCTG; value = 0.392 z-score
